Measurements pooled from the literature.
Each numbered part is a random draw from the data of one study; scales do not carry over between parts. Changes are numbered by the printed parent chain.

Series 1 — organism: Saccharomyces cerevisiae; observed: binding; method: competitive growth deep sequencing; form: peptide; strain: cyclin E1-Cln2 fusion strain; concentration: concentration not given; notes: peptide tiling library; reading: direction not given
`RKLDLEGIGR`: “growth enrichment score” 0.143.
`GTPKRCLDLSNLSSGE` — result for “growth enrichment score”: 0.481.
Under “growth enrichment score”, `SNFFDVIKQLFSDEKN` is recorded as 1.46.
Under “growth enrichment score”, `ASVLSKPIFCFVKD` is recorded as 0.738.
`HPESPPRKRLKSKGSD`: “growth enrichment score” -0.301.
Under “growth enrichment score”, `MNQELLSVGSKRRRTG` is recorded as 1.31.
`PKRAKRKLYTSEISSP` — result for “growth enrichment score”: 0.252.
For `TLPYDLACTGGDFVLF`, “growth enrichment score” read 0.218.

Series 2 — method: aptamer microarray, sandwich; form: DNA with 2'F-ANA; matrix: in vitro; concentration: 200 nM; together with: Cy3 exosite-II aptamer, 400 nM; reading: higher = stronger binding; oligonucleotide: GGTTGGTGTGGTTGG
Target: Prothrombin, mature alpha-thrombin (F2, Homo sapiens, UniProt P00734)
Notes: whole 15-mer aptamer, many near background
`2'F-ANA at 1 2 3 4 6 8 9 10 12 15`: “mean fluorescence intensity” 76.2 a.u.
For `2'F-ANA at 3 5 6 7 8 10 12 14 15`, “mean fluorescence intensity” read 50.2 a.u.
`2'F-ANA at 1 4 7 8 10 11 12 13` — result for “mean fluorescence intensity”: 54.4 a.u.
Under “mean fluorescence intensity”, `2'F-ANA at 2 6 7 8 12 13` is recorded as 624 a.u.
Under “mean fluorescence intensity”, `2'F-ANA at 1 6 10 11 12 15` is recorded as 67.3 a.u.
`2'F-ANA at 4 7 8 9 10 13 15`: “mean fluorescence intensity” 68.9 a.u.
`2'F-ANA at 2 5 6 7 9 10 11 15` — result for “mean fluorescence intensity”: 97 a.u.
`2'F-ANA at 1 2 4`: “mean fluorescence intensity” 162 a.u.

Series 3 — target: NFE2L3, bZIP domain (human); method: DHFR protein complementation; matrix: yeast; baseline: wild-type JUN-FOS pair; reading: higher = stronger binding
Notes: single substitutions, most at no-binding floor
Starting sequence: JUN, bZIP domain (human); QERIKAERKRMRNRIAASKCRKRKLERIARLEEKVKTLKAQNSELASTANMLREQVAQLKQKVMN; partner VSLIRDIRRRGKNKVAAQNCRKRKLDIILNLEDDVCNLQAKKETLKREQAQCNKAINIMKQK
For `E44S`, the binding fitness was -1.42 natural log.
`R53A` has a binding fitness of -1.57 natural log.
With `E44K` the binding fitness was -1.54 natural log.
With `S43C` the binding fitness was -1.24 natural log.
For `K34H`, the binding fitness was -1.54 natural log.
`S47I` has a binding fitness of -1.43 natural log.
The binding fitness of `L38V` is reported as -1.45 natural log.
`E33F` has a binding fitness of -1.5 natural log.

Further values, each from its own experiment
Starting sequence: PafA, mature enzyme, eGFP fusion (Elizabethkingia meningoseptica, UniProt Q9KJX5); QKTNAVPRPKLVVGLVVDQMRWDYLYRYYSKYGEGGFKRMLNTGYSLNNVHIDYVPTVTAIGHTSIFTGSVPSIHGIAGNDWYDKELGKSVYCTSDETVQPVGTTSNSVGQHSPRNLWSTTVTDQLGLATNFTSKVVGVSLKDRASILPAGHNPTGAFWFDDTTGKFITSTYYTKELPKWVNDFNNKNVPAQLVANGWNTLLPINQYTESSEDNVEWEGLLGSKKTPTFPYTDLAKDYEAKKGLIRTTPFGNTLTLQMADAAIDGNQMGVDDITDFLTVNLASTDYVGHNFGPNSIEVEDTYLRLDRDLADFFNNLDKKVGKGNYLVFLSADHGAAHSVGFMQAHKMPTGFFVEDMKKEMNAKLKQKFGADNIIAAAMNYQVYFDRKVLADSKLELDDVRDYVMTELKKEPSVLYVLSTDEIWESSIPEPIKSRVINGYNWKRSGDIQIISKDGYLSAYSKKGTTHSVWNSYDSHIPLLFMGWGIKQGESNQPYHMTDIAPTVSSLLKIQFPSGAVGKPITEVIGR
For `Q343V`, “phosphate dissociation constant” read 641 µM (inorganic phosphate, free oxyanion; microfluidic competitive inhibition; in vitro, cell-free expressed; not given, derived from inhibition constants, unchanged parent 615000 nM; lower = stronger binding).

A few entries again (series 3):
The binding fitness of `L38V` is reported as -1.45 natural log.
